Assay results of several laboratories.
Compare with care: the assays were run in different laboratories. ± marks the error that the study gave.

| SMILES | test | test system | setting | how to read | endpoint | value |
| --- | --- | --- | --- | --- | --- | --- |
| CN(C)C(CNC(=O)Nc1cc(C(F)(F)F)ccc1N1CCOCC1)c1ccncc1 (centres unmarked) |  | mouse, serum | intraperitoneal, 120 mg/kg single dose |  | serum potassium | 7.3 mmol/L |
| COc1ccc(C)cc1NC(=O)OC1CC2CCCC(C1)N2Cc1ccc(CC[18F])cc1 (centres unmarked) |  | BALB/c mice, EMT6 tumour | 5 min | baseline: tumour over lung | tumour to tissue ratio | 0.01 |
| CCNc1cc2[o+]c3cc(NCC)c(C)cc3c(-c3ccccc3C(=O)OCCOCC[18F])c2cc1C |  | rat, muscle | 120 min |  | tissue uptake | 0.14 ± 0.02 %ID/g |
| [11CH3]n1c(=O)n(CCCO)c(=O)c2c1nc(Oc1cccc(OC(F)(F)F)c1)n2Cc1ccc(Cl)cc1 | ex vivo biodistribution | Sprague Dawley rat, liver | 30 min post injection |  | tracer uptake | 3.03 ± 0.51 %ID/g |
| CCOP(=O)(OCC)OCCCCOC(=O)C(C)c1ccc(CC(C)C)cc1 (centres unmarked) | HPLC | Fischer 344 rats, plasma | diet or gavage, dose not given |  | plasma concentration | not detected |
| O=C(O)CC[C@H](NC(=O)O[C@@H](CCCCNC(=O)c1ccc([18F])cc1)C(=O)O)C(=O)O |  | mouse, PC-3 PIP/flu xenografts, blood | 60 min |  | tissue uptake | 1.07 ± 0.26 %ID/g |
| O=C(O)CCCN1CCN2CCN(CC1)CC(=O)[O][Al]([18F])[O]C(=O)C2 |  | Sprague-Dawley rat, normal, blood | iv, 10 min |  | blood uptake | 8.5 ± 0.8 %ID |
| CC(C)[C@@H]1NC(=O)[C@H](Cc2ccccc2)NC(=O)[C@H](Cc2ccc(O)cc2)NC(=O)CCSSC[C@@H](C(=O)N2CCC[C@H]2C(=O)N[C@H](CCCNC(=N)N)C(=O)NCC(N)=O)NC(=O)[C@H](CCC(N)=O)NC1=O |  | Wistar rat, blood | intravenous, 100 µg/kg single dose, 72 h |  | fibrinogen | 180 ± 45.7 mg/dL |
| NCC(=O)NCC(=O)NCC(=O)NCC(=O)NCC(=O)NCC(=O)NCCCC[C@H](NC(=O)[C@@H]1CCCN1C(=O)[C@@H]1CSSCCC(=O)N[C@@H](Cc2ccc(O)cc2)C(=O)N[C@@H](Cc2ccccc2)C(=O)N[C@@H](CCCC(N)=O)C(=O)N[C@@H](CC(N)=O)C(=O)N1)C(=O)NCC(N)=O |  | male Sprague Dawley rats | sc | baseline: NOAEL over NOEL | therapeutic index | ~100 |
| CC[C@H](C)[C@H](NC(=O)[C@H](C)NC(=O)[C@H](CCCCN)NC(=O)[C@H](CC(C)C)NC(=O)[C@@H](N)Cc1ccccc1)C(=O)N[C@@H](CCCCN)C(=O)N[C@@H](CCCCN)C(=O)N[C@@H](Cc1ccccc1)C(=O)NCC(=O)N[C@@H](CCCCN)C(=O)N[C@@H](CCC(=O)O)C(=O)N[C@@H](Cc1ccccc1)C(=O)N[C@@H](CCCCN)C(=O)N[C@@H](CCCCN)C(=O)N[C@H](C(=O)NCC(=O)N[C@@H](C)C(=O)N[C@@H](CCCCN)C(=O)N[C@@H](CC(C)C)C(=O)N[C@@H](CCCCN)C(=O)O)[C@@H](C)CC |  | BALB/c mice |  | baseline: compound over pexiganan | LD50 ratio | 2.5 |
| CCN(Cc1ccccc1)C(=O)CCc1nc(CN2CCN(C(=O)Cc3ccc(OC)c(OC)c3)CC2)no1 |  | rat, kidney | intravenous, 1 mg/kg, 2 h, single dose |  | concentration | < 1.8 ng/g |
| CC[C@H](C)[C@H](NC(=O)[C@H](CC(C)C)NC(=O)[C@H]1CCCN1C(=O)[C@@H](CO)NC(=O)[C@H](N)CC(C)C)C(=O)N[C@@H](Cc1ccccc1)C(=O)N[C@H](C(=O)N[C@H](C(=O)N[C@H](C(=O)N1CCC[C@H]1C(=O)N[C@@H](CC(=O)O)C(=O)N[C@@H](C(=O)O)[C@H](C)O)[C@@H](C)O)[C@@H](C)O)C(C)C | flow cytometry | C57BL/6 mouse, footpad tumour, tumour and popliteal lymph nodes | dose not given |  | CCR7+ T cell infiltration | no effect |
| N=C(N)NCc1ccc(C(=O)NCCCC[C@H](NC(=O)N[C@@H](CCC(=O)O)C(=O)O)C(=O)O)cc1[131I] |  | SCID mouse, PC-3 xenografts, stomach | 1 h |  | tissue uptake | 0.74 ± 0.16 %ID/g |
| CC[C@@H]1C[C@]1(NC(=O)[C@@H]1C[C@@]2(CN1C(=O)[C@@H](NC(=O)[C@@H](NC(=O)[C@@H]1CCCCN1C(C)C)C1CCCCC1)C(C)(C)C)C(C)(C)C21CCC1)C(=O)NS(=O)(=O)N1CCCC1 | item: Diarrhea | human | oral, 50 mg, with: ritonavir 100 mg |  | subjects with adverse event | 50% |
| CC(=O)[O-].F[P-](F)(F)(F)(F)F.[Co+2].c1ccc(CN2CCCN3CCN(CCCN(Cc4ccccc4)CC3)CC2)cc1 | cyclic voltammetry, item: second Co2+/Co3+ couple | acetonitrile |  | baseline: SHE | E1/2 | 0.648 V |
| [2H]C([2H])([2H])C([2H])([2H])C([2H])([2H])OC(C(=O)OC1CCNCC1)(c1ccccc1)c1ccccc1 |  | male human, plasma | oral, 12 mg, multiple doses |  | Tmax | 4 h |

| SMILES | test | test system | setting | how to read | endpoint | value |
| --- | --- | --- | --- | --- | --- | --- |
| CN[C@](C)(C[18F])C(=O)O |  | SCID mouse SK-OV-3 xenograft, spleen | 15 min, post injection |  | tissue uptake | 8.5 ± 3 %ID/g |
| CC[C@H](C)[C@@H]1NC(=O)[C@H](CCCNC(=N)N)NC(=O)[C@H](CCCCN)NC(=O)[C@H](Cc2ccc(O)cc2)NC(=O)[C@H](CC(C)C)NC(=O)[C@@H]2CCCN2C(=O)[C@H](C)NC(=O)CNC(=O)CNC(=O)[C@H](CO)NC(=O)CNC(=O)CNC(=O)[C@H](CO)NC(=O)[C@H](CCC(=O)O)NC(=O)[C@H](CC(C)C)NC(=O)[C@H](CC(C)C)NC(=O)[C@H](CCCCN)NC(=O)[C@H](CCCCN)NC(=O)[C@H]([C@@H](C)CC)NC(=O)[C@H]([C@@H](C)CC)NC(=O)[C@H](CCCNC(=N)N)NC(=O)[C@H](CCCCN)NC(=O)[C@H](Cc2ccc(O)cc2)NC(=O)[C@H](CC(C)C)NC(=O)[C@@H]2CCCN2C(=O)CNC(=O)CNC(=O)[C@@H](NC(=O)CN)CSSC[C@@H](C(N)=O)NC(=O)[C@H](CC(C)C)NC(=O)[C@H](CCCCN)NC(=O)[C@H](CCCCN)NC(=O)[C@H]([C@@H](C)CC)NC1=O | hemolysis | uninfected human erythrocytes | 1 h |  | HC10 | 34.1 ± 4.8 µM |
| CC(=O)N1CCC(NC(=O)C(N)Cc2c(C)cc(O)cc2C)c2cc(CN3CCc4ccccc4C3)ccc21 (centres unmarked) | chemical stability | mouse, plasma | 30 min |  | compound remaining | 95.3% |
| C/C=C/C=C/C/C=C/CCCCCCCc1cccc(O)c1O |  | female Kunming mice, tumour-bearing, spleen | intravenous, 10 mg/kg, 2 h |  | tissue concentration | 8460 ± 780 ng/g |
| NS(=O)(=O)NCC(F)(F)c1ccccc1F | 6 Hz psychomotor seizure test | mouse |  | baseline: rotarod TD50 over 6 Hz ED50 | therapeutic index | 11.4 |
| CC[C@H](C)C(=O)N1CCC(NC(=O)Nc2ccc(OC(F)(F)F)c(F)c2)CC1 |  | healthy volunteers | oral, 24 mg single dose |  | subjects with headache TEAE | 16.7% |
| CC(C)[C@H](NC(=O)CNC(=O)[C@H](CCC(N)=O)NC(=O)[C@H](C)N)C(=O)O |  | human | 30 mg/kg single dose |  | subjects with severe adverse events | 0% |
| COC(=O)C[C@](O)(CCCC(C)(C)OC(C)=O)C(=O)O[C@@H]1C(OC)=C[C@]23CCCN2CCc2cc4c(cc2[C@H]13)OCO4 |  | CD1 mouse, brain | subcutaneous, 1 mg/kg, 8 h, below quantification limit 1.00 ng/mL |  | tissue concentration | not detected |
| O=c1cc(-c2ccccc2)oc2c(Br)c(O)c(O)c(O)c12 |  | C57BL/6 mouse, plasma | po, 250 mg/kg |  | Ctrough | 373 ± 272 ng/mL |
| Cc1ccccc1CN1CCC(O)(c2ccc(Cl)c(C(F)(F)F)c2)CC1 |  | female BALB/c mouse, serum | intraperitoneal, 50 mg/kg |  | intercompartmental clearance | 4.9 mL/min |
| CCCCCCCCCCCCC(=O)O.O=C1CCCC2C3CCCN4CCCC(CN12)C34 (centres unmarked) | electrical conductivity | water | 313.15 K |  | standard entropy of aggregation | 111 J/(mol·K) |
| C#Cc1c(F)ccc2cc(O)cc(-c3ncc4c(N5CC6CCC(C5)N6C(=O)OCc5ccc(OC(=O)CCCC)cc5)nc(OC[C@@]56CCCN5C[C@H](F)C6)nc4c3F)c12 | chemical stability | simulated intestinal fluid | 1 µM, 30 min |  | compound remaining | 20% |
| CCC(CC)OC1C=C(C(=O)OC(C)OC(=O)C(N)C(C)C)CC(NC(=N)N)C1NC(C)=O (mixture of isomers) |  | mice, plasma | po-fed, 10 mg/kg, 24 h |  | AUC(0-24 h) | 1440 ± 338 ng·h/mL |
| CSCC[C@@H]1NC(=O)[C@@H]2CSSC[C@H](NC(=O)[C@H](CO)NC(=O)[C@H](C)N)C(=O)N[C@@H](CCCNC(=N)N)C(=O)N[C@@H]([C@@H](C)O)C(=O)N3CCC[C@H]3C(=O)N[C@@H](CCCCN)C(=O)N[C@@H](CC(=O)O)C(=O)N[C@H]3CSSC[C@H](NC(=O)[C@H](CCCCN)NC(=O)[C@H](CCCNC(=N)N)NC(=O)[C@H](CC(N)=O)NC1=O)C(=O)N[C@@H](CCCCN)C(=O)N[C@H]1CSSC[C@H](NC(=O)[C@@H]4CCCN4C(=O)[C@H](CC(=O)O)NC(=O)[C@H](C)NC3=O)C(=O)N[C@@H](C)C(=O)N[C@@H](CCCCN)C(=O)N[C@@H](CCC(=O)O)C(=O)N[C@@H]([C@@H](C)O)C(=O)NCC(=O)N[C@@H](CSSC[C@@H](C(N)=O)NC(=O)[C@H](CCCNC(=N)N)NC(=O)[C@H](CC(N)=O)NC1=O)C(=O)N1CCC[C@H]1C(=O)N[C@@H](Cc1ccc(O)cc1)C(=O)NCC(=O)N[C@@H](CCCCN)C(=O)N2 |  | DA rat, pristane-induced arthritis, serum | subcutaneous, single 0.1 mg/kg at onset, end of 21-day trial |  | globulin | 1.18 g/dL |
| CC(C)[C@H](NC(=O)CNC(=O)[C@H](CCC(N)=O)NC(=O)[C@H](C)N)C(=O)O |  | healthy male volunteers | intravenous, 90 mg/kg/h, 2 h, with: LPS 2 ng/kg |  | discontinuation due to AE | 0% |
| CCN(CC)CCOc1ccc(-c2nnn(Cc3ccc(OC)cc3)c2N)cc1 |  | Sprague-Dawley rat | oral, 4 weeks daily |  | NOAEL | 25 mg/kg |

For quick reference, copied from above:
| SMILES | test | test system | setting | how to read | endpoint | value |
| --- | --- | --- | --- | --- | --- | --- |
| CN(C)C(CNC(=O)Nc1cc(C(F)(F)F)ccc1N1CCOCC1)c1ccncc1 (centres unmarked) |  | mouse, serum | intraperitoneal, 120 mg/kg single dose |  | serum potassium | 7.3 mmol/L |
| CC(C)[C@H](NC(=O)CNC(=O)[C@H](CCC(N)=O)NC(=O)[C@H](C)N)C(=O)O |  | human | 30 mg/kg single dose |  | subjects with severe adverse events | 0% |
| CC(=O)[O-].F[P-](F)(F)(F)(F)F.[Co+2].c1ccc(CN2CCCN3CCN(CCCN(Cc4ccccc4)CC3)CC2)cc1 | cyclic voltammetry, item: second Co2+/Co3+ couple | acetonitrile |  | baseline: SHE | E1/2 | 0.648 V |
